Measured values from different studies.
Parts stem from different laboratories: compare values within a part only. Changes are numbered by the printed parent chain.

Series 1
Target: CCND1, cyclin fold, Cln2 fusion (human)
Method: yeast growth competition, sequencing
Matrix: yeast
Setting: strong parent motif
Reference: not given
Reading: higher = stronger binding
Starting sequence: SCAPER docking peptide (human); SNARRSLNFGGST; partner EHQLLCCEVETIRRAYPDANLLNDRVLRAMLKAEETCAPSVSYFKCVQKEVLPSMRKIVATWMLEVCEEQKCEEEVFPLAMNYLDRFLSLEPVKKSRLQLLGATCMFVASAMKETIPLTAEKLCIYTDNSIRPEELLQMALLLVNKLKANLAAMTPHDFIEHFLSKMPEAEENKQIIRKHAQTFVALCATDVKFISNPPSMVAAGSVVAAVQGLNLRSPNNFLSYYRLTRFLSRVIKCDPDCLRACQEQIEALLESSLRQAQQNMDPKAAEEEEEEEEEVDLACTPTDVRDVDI
Variant	normalised enrichment score
SNARRGLNFGGST [S6G]	0.608
SNARRSLNFSGST [G10S]	0.424
SNARRSLNFGGGT [S12G]	1.06
SNERRSLNFGGST [A3E]	1.11
SNARQSLNFGGST [R5Q]	0.293

Series 2
Target: RNA binding protein fox-1 homolog 2, RRM domain, GST-SBP tag (RBFOX2, Homo sapiens, UniProt O43251-10, residues 100-194)
Method: RNA Bind-n-Seq
Form: RNA
Matrix: in vitro
Tested at: 365 nM
Setting: natural RNA segment, single round, ends assumed
Reference: no-protein control
Reading: higher = stronger binding
All sequences stand within: GGGAGUUCUACAGUCCGACGAUC … UGGAAUUCUCGGGUGCCAA
Target sequence (chain): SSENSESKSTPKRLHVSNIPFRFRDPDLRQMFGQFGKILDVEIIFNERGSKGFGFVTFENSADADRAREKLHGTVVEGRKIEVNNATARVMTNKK
Sequence	RBNS enrichment (R)
CUGUACCUUUAUAUAUAUGUGUGUGUACAUAUAUACAUAUAUAAACUGUAUAGUGUACAUGGUAAUGAUUUAUUGCUAUGCCCCAGAUCCUUAAUGUAGUUCUCAUCCUC	0.221
UACACUAAUCUGCCUAAAGGUGGUUGUUUCAUAUUUAUAAUGCUAAUUAUCAUACCUACCUACUUUAAAUUUUAGGUAGAAAAUUAUCUGAUUUAAAUACAAACAUAUUU	0.431
AUAGAUCUAAUCAAAUAUGUUGAUUCAUGGCUAUAAUAAAGCAGGAGCAAUUAUAAAAUCUUCAAUCAAUUGAACUUUUACAAAACCACUUGAGAAUUUCAUGAGCACUU	0.737
UCAGAGUGGGCUGGGCCCCUGGGCGAGACACAGCUACCUCUGUUGGCAUCUUUUUAAUACCAGGAACCCAGCGGCUCUAGCCACUGAGCGGCUAAAUGAAAUAAAGUGGA	0.278
GCCAGAAUCCACUGGCCUCUGUCUCAUUCUUGGGUUUUCCUGCUGUCUUCGUUUACGUCUCUGUCCACAUGUCAGUGUAUUAAAACCCCAAUGGGUUCCGUUUCUCCUUU	0.264
UGAGGAGUUAGAAGAUGAGGUGUCUAUGAUGUUGAUGUAAUGUAUACGUAGGCGAUAUAUGUAAGUGUUCUGAUAACAUGACUCUAAUGGUGUUUAAGUGUUCUGAUAAC	0.653
AAAAAAAAUAAAAUUUGAGUGGAAAUAAUGUUAUUAAACCAUUCUUCUAAUGCUUCACUUUUGAUGAUGCAGUAUGUUCCUUUAAAUCUUGGCAGAACUUUCUAAAGCUA	0.725
CCUUCUGGGGGAGCCCUAAGAGGUGGGGAGCAGAGGACUUUUGCUCAGACACCCUUUGCCUGGAAGCCCACUUGUGUUGCUGCUGUGUUGUGUAUAUAGUAUUCUCGAGA	0.542

Series 3
Target: Histone acetyltransferase KAT6A, winged helix 2, GST fusion (KAT6A, Homo sapiens, UniProt Q92794, residues 85-181)
Method: protein binding microarray
Form: double-stranded DNA, one strand shown
Matrix: in vitro
Tested at: not given
Setting: 8-mer, flanks averaged, mean of 2 arrays, mostly near background
Reference: not given
Reading: higher = stronger binding
Target sequence (chain): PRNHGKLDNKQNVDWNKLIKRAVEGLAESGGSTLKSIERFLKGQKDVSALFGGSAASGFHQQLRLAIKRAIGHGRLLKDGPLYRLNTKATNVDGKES
Sequence	E-score
GGCACCCA	0.142
AAGTGATT	-0.00932
ACGACCTC	0.113
GGGGGGGA	0.0151
AACGAATT	-0.0164
CCCCTCCC	0.118
ACGTTAAC	-0.143
ACCTGTAA	-0.238
GCTATCCA	-0.0335
AGCGCTGC	0.0832
AAGAGCCG	-0.0195

Other studies, line by line
Substance	target	test	test system	conditions	scale	measurement	value
PhoQ, residues 284 288 289 292 302 303 NLCILV	PhoP, residues 12 14 15 18 19 HEGLL (Escherichia coli, UniProt P23836)	Sort-seq, measured: YFP reporter	E. coli	PhoQ-PhoP variant library, with: 10 µM Mg2+	reference: high Mg2+ state, higher = stronger signaling	fold induction	15.8
